Results of several laboratories.
Numbers after ± are the reported error. In brackets after ≈: the same amount, converted by molar mass.
Matrix protein 2 S31N: Matrix protein 2 (Influenza A virus, UniProt P0DOF5, S31N)

| SMILES | target or system | assay | system | conditions | endpoint | result |
| --- | --- | --- | --- | --- | --- | --- |
| O=C(NC1CCN(c2ncnc3[nH]cnc23)CC1)c1cccc(NS(=O)(=O)c2ccc(C(F)(F)F)cc2)c1 | Replicase polyprotein 1ab, nsp14 Q313R (rep, Severe acute respiratory syndrome coronavirus 2, UniProt P0DTD1, Q6238R) | thermal shift | SARS-CoV-2 | – | ΔTm | 1.7 °C |
| Nc1ncc(CNC23CC4CC(CC(C4)C2)C3)s1 | Matrix protein 2 S31N | proton channel activity, inhibitor | Influenzavirus A, S31N mutant | 100 µM | inhibition | 25% |
| COc1ccc(NC(=O)c2ccc(-c3ccc(C(=N)N)cc3C)cc2)cc1N1CCN(C)CC1 | Calu-3 | pseudoparticle entry | SARS-CoV-2 spike pseudotyped particles | – | IC50 | 350 nM |
| CC(C)CC(C(=O)N1CC2(CC1C#N)C(=O)Nc1ccccc12)N(C)C(=O)c1cc2c(F)cc(F)c(F)c2[nH]1 (stereo not drawn) | SARS-CoV-2 | viral replication, infectious virus | Vero E6-TMPRSS2, Omicron variant | 0.0333 µM | inhibition | 44% |
| CC(C)(C)[C@H](NC(=O)NC1(CS(=O)(=O)C(C)(C)C)CCCCC1)C(=O)N1C[C@H]2[C@@H]([C@H]1C(=O)N[C@H](C#N)C[C@@H]1CCNC1=O)C2(C)C | Replicase polyprotein 1ab, main protease (rep, Severe acute respiratory syndrome coronavirus 2, UniProt P0DTD1) | differential scanning fluorimetry | – | 200 µM | melting temperature | 70.6 ± 0.1 °C |
| CCN(c1nc(N)c(C(=O)NC(=N)N)nc1Cl)C(C)C | Calu-3 | pseudoparticle entry | SARS-CoV-2 spike pseudotyped particles | – | IC50 | > 30000 nM |
| Cc1nc(CNC23CC4CC(CC(C4)C2)C3)no1 | Matrix protein 2 S31N | proton channel activity, inhibitor | Influenzavirus A, S31N mutant | 100 µM | inhibition | 60% |
| CC1OC(OC2C(OC(=O)C34CCC(C)(C)CC3C3=CCC5C6(C)CCC(OC7OC(CO)C(O)C(O)C7O)C(C)(C)C6CCC5(C)C3(C)CC4O)OCC(O)C2O)C(O)C(O)C1OC1OCC(O)C(OC2OCC(O)C(OC3OCC(O)C(O)C3O)C2O)C1O (stereo not drawn) | SARS-CoV-2 | viral infection | Vero cells, gamma P.1 | – | IC50 | 1460 nM |
| COc1ccc2ncc(F)c(C[C@H](O)[C@H]3OC[C@H](NCc4ccc5c(c4)OCCO5)CO3)c2c1 | Mycobacterium tuberculosis | – | H37Rv katG deletion | – | MIC | 1 µg/mL (≈ 2.13 µM) |
| CC(C)C(=O)OC[C@H]1O[C@@](C#N)(n2ccc(N)nc2=O)[C@H](O)[C@@H]1O | SARS-CoV-2 | viral replication | Calu-3, Alpha | – | EC50 | 800 ± 40 nM |
| COc1ccc2ncc(F)c(C(O)C[C@H]3OC[C@H](NCc4ccc(Cl)c(Cl)c4)CO3)c2n1 (stereo partly drawn) | Mycobacterium tuberculosis | – | H37Rv katG deletion | – | MIC | 0.125 µg/mL (≈ 0.259 µM) |
| O=C(CCCCCCc1ccc(O)c(O)c1)c1c(O)cccc1O | SARS-CoV-2 | viral replication, MTT | HEK293T ACE2, Delta B.1.617.2 | – | EC50 | 4300 nM |
